Assay results pooled from the literature.
Numbered parts are unrelated; each lists some results of a single study. Several values in a cell are separate wells, animals, samples, runs or records.
Chain of UniProt P53667 (whole entry, looked up): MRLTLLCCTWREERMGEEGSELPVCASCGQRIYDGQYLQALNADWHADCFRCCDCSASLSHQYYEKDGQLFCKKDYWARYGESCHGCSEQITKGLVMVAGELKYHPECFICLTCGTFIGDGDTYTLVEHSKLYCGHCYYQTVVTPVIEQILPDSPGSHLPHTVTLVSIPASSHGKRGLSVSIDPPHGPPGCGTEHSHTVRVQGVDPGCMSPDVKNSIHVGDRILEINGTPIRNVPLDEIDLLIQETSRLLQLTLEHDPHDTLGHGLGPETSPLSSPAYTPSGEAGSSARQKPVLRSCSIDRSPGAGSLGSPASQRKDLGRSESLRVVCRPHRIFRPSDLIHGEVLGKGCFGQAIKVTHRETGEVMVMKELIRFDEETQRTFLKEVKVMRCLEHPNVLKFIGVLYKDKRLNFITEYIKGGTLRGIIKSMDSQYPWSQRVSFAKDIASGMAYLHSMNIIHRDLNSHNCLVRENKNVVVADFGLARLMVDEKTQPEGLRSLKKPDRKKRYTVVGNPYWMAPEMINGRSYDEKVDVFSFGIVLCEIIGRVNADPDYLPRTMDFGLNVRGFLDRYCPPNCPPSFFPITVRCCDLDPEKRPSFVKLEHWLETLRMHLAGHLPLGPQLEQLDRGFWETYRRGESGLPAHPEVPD
Chain of UniProt O75582 (whole entry, looked up): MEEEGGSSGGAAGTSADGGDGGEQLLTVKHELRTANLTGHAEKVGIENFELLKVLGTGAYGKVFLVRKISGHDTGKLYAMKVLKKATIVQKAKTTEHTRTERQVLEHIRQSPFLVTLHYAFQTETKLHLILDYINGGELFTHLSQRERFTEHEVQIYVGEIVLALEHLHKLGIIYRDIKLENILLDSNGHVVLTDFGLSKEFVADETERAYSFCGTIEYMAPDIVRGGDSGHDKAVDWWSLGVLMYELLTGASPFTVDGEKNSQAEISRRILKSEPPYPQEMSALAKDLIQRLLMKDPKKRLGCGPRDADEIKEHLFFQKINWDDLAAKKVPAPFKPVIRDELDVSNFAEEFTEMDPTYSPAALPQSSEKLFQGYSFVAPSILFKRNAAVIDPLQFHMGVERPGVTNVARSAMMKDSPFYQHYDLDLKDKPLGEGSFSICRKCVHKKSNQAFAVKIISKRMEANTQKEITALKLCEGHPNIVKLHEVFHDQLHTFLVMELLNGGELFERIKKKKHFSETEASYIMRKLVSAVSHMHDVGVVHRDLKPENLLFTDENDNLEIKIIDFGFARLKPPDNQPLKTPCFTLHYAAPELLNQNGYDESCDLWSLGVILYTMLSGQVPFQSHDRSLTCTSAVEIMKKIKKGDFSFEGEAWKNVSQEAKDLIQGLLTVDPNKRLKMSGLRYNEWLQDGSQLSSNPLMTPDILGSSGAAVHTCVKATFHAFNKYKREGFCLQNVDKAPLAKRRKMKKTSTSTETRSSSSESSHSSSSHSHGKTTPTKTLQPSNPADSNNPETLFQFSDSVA
Chain of UniProt P00519 (whole entry, looked up): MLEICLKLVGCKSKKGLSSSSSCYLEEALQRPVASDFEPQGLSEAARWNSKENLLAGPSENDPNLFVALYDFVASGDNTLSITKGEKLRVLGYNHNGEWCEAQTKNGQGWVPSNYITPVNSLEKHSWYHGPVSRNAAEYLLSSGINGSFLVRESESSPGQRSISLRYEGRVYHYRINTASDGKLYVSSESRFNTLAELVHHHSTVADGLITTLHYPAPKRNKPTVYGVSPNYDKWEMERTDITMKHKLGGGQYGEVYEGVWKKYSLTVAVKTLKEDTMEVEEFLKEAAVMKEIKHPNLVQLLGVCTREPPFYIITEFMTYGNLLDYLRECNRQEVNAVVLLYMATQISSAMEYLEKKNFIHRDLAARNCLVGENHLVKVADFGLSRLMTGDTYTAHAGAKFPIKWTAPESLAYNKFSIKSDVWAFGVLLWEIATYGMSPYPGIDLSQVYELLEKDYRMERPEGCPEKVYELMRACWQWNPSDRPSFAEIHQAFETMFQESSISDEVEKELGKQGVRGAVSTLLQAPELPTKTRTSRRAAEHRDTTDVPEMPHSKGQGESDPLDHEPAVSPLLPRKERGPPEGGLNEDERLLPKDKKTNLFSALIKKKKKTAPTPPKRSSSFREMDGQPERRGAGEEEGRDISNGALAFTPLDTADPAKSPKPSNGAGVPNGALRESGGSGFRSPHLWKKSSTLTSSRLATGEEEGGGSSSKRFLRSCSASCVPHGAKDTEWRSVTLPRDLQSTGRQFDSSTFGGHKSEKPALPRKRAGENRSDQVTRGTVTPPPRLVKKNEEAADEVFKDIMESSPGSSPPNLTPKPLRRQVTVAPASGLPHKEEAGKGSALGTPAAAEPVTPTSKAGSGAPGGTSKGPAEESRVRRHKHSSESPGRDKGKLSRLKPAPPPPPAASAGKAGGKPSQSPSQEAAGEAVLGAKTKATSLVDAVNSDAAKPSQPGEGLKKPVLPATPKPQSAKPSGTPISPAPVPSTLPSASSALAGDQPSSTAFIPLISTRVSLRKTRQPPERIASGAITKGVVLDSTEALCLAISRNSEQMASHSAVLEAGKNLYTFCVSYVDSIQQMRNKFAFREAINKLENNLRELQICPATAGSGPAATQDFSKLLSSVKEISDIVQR
Chain of UniProt Q05397 (whole entry, looked up): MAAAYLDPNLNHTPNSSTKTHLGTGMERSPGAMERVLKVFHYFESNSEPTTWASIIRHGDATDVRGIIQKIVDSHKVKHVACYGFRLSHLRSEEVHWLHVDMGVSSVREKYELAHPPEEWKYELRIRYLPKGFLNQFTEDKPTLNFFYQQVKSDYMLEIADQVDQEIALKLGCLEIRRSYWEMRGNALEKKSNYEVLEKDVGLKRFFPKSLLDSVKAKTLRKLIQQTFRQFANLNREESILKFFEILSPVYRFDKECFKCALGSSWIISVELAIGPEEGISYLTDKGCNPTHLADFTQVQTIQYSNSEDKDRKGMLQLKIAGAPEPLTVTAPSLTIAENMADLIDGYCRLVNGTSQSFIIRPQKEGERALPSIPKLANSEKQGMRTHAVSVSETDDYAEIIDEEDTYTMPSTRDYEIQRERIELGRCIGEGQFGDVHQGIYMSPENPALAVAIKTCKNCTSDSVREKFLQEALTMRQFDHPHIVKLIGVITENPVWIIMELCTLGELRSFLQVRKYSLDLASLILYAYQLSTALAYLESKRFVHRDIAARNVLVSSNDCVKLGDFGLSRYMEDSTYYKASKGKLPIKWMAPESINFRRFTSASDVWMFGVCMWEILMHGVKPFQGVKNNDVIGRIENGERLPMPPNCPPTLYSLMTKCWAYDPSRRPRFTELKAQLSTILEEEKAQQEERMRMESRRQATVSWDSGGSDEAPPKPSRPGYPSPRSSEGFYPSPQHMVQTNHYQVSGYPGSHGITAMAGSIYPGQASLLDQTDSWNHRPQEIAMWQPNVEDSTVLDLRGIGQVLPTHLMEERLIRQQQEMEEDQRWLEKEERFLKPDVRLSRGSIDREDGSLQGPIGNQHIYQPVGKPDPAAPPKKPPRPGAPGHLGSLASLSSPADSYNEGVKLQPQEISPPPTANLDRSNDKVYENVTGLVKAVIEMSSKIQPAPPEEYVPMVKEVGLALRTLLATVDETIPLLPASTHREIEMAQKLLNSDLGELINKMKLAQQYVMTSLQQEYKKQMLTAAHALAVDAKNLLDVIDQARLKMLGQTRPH

Sample 1 — read-out: cell-free assay; method: competition with immobilised ligand; concentration: 1 µM
SMILES: O=C(Nc1ccc(Oc2ccc(F)cc2)cc1)N1CCc2ncccc2[C@H]1c1ccc(F)cc1
target	remaining binding [%]
LIM domain kinase 1 (LIMK1, Homo sapiens, UniProt P53667)	85
Ribosomal protein S6 kinase alpha-5, C-terminal kinase domain (RPS6KA5, Homo sapiens, UniProt O75582)	74
PTK2 (Homo sapiens, UniProt Q05397)	100

Mixed results
SMILES	tested on	assay	system	setting	how to read	measurement	value
CC1NC(=O)NC1=O (centres unmarked)	mouse MPNST tumor cells	high-content immunofluorescence imaging, item: nuclear SOX9		10 µM, 12 h, mean of 2 replicates	relative to: DMSO control, higher = more nuclear SOX9	nuclear SOX9 intensity	90.6 % of DMSO and 103 % of DMSO
CC(C)n1cnc(-c2ccc(F)cc2)c1-c1ncc(C(=O)Nc2ccc(N3CCN(C)CC3)cc2)[nH]1			IPF patients	30 mg once daily, adverse event		Hypertriglyceridaemia incidence	0%
O=C(Cn1ccnc1[N+](=O)[O-])NCCO	mouse MPNST tumor cells	high-content immunofluorescence imaging, item: nuclear SOX9		10 µM, 12 h, mean of 2 replicates	relative to: DMSO control, higher = more nuclear SOX9	nuclear SOX9 intensity	101 % of DMSO
NC1(c2ccc(-c3nc4ccn5c(=O)[nH]nc5c4cc3-c3ccccc3)cc2)CCC1	ABL1 (Homo sapiens, UniProt P00519)	kinase–CDC37 interaction, inhibitor	human cells	kinome plate 1@E11		EC50	> 10 µM
CN(Cc1cnc2nc(N)nc(N)c2n1)c1ccc(C(=O)N[C@@H](CCC(=O)O)C(=O)O)cc1 (racemic)	mouse MPNST tumor cells	high-content immunofluorescence imaging, item: nuclear SOX9		10 µM, 12 h, mean of 2 replicates	relative to: DMSO control, higher = more nuclear SOX9	nuclear SOX9 intensity	115 % of DMSO

For quick reference, copied from above (mixed results):
SMILES	tested on	assay	system	setting	how to read	measurement	value
CC1NC(=O)NC1=O (centres unmarked)	mouse MPNST tumor cells	high-content immunofluorescence imaging, item: nuclear SOX9		10 µM, 12 h, mean of 2 replicates	relative to: DMSO control, higher = more nuclear SOX9	nuclear SOX9 intensity	90.6 % of DMSO and 103 % of DMSO
